Results collected from several papers.

CC[C@H](C)[C@H](NC(=O)CNC(=O)[C@H](CCCCN)NC(=O)[C@H](CCCCN)NC(=O)[C@@H](N)CCC(=O)O)C(=O)N[C@@H](CC(C)C)C(=O)N[C@@H](CCC(=O)O)C(=O)N[C@@H](CCCCN)C(=O)N[C@H](C(=O)N[C@@H](CCCCN)C(=O)N[C@@H](CCC(=O)O)C(=O)N[C@@H](CCCCN)C(=O)N[C@@H](CC(C)C)C(=O)N1CCC[C@H]1C(=O)NCC(N)=O)[C@@H](C)CC  retention time (RP-HPLC; C18 column): 14.9 min
CC(C)C[C@H](NC(=O)[C@H](CC(N)=O)NC(=O)[C@H](CCC(N)=O)NC(=O)[C@H](CCC(N)=O)NC(=O)[C@H](CC(N)=O)NC(=O)[C@@H](N)CC(N)=O)C(=O)O  retention time (RP-HPLC C18): 10.5 min
CC[C@H](C)[C@H](NC(=O)CN)C(=O)N[C@@H](CCCCN)C(=O)N[C@@H](CCCCN)C(=O)N[C@@H](Cc1ccccc1)C(=O)N[C@]1(C)CCCCCCC=CCCC[C@@](C)(C(=O)N[C@@H](CCCCN)C(=O)N[C@@H](C)C(=O)N[C@@H](Cc2ccccc2)C(=O)N[C@@H](CCCCN)C(N)=O)NC(=O)[C@H](Cc2ccccc2)NC(=O)[C@H](CCCCN)NC(=O)[C@H](CCCCN)NC(=O)[C@H](C)NC(=O)[C@H](CO)NC(=O)[C@H](CCCCN)NC1=O  retention time (UPLC; TFA water/acetonitrile gradient; longer = more hydrophobic): 2.41 min
CCCC[C@H](NC(=O)[C@@H](NC(=O)[C@H](CCC(=O)O)NC(=O)CNC(=O)[C@@H](NC(=O)[C@H](Cc1ccccc1)NC(=O)[C@H](C)NC(=O)[C@H](CCCCN)NC(=O)CNC(=O)[C@H](Cc1ccccc1)NC(=O)[C@]1(C)CCCC=CCCC[C@](C)(NC(=O)[C@H](CC(C)C)NC(=O)[C@H](Cc2ccccc2)NC(=O)[C@H](CCCCN)NC(=O)CNC(=O)[C@@H](NC(=O)CN)[C@@H](C)CC)C(=O)N[C@@H](CO)C(=O)N[C@@H](C)C(=O)N[C@@H](CCCCN)C(=O)N1)C(C)C)[C@@H](C)CC)C(=O)N[C@@H](CC(N)=O)C(=O)N[C@@H](CO)C(N)=O  retention time (HPLC C18 column): 13.7 min
CC[C@H](C)[C@@H]1NC(=O)[C@@](C)(N)CCCC=CCCC[C@@](C)(C(=O)N[C@@H](CC(C)C)C(=O)N[C@@H](CCCCN)C(=O)N[C@@H](CO)C(=O)N[C@@H](C)C(=O)N[C@@H](CCCCN)C(=O)N[C@@H](CCCCN)C(=O)N[C@@H](Cc2ccccc2)C(=O)N[C@H](C(=O)N[C@@H](CCCCN)C(=O)N[C@@H](C)C(=O)N[C@@H](Cc2ccccc2)C(=O)N[C@@H](CCCCN)C(N)=O)C(C)C)NC(=O)[C@H](CCCCN)NC(=O)[C@H](CCCCN)NC1=O  retention time (UPLC; TFA water/acetonitrile gradient; longer = more hydrophobic): 2.08 min
CC[C@H](C)[C@H](NC(=O)[C@H](Cc1ccc(O)cc1)NC(=O)[C@@H](N)CC(C)C)C(=O)N[C@@H](CCC(N)=O)C(=O)N[C@@H](CC(N)=O)C(=O)N[C@@H](Cc1ccc(O)cc1)C(=O)O  retention time (RP-HPLC C18): 15 min
CCCC[C@H](NC(=O)[C@@H](NC(=O)[C@H](CCC(=O)O)NC(=O)CNC(=O)[C@@H](NC(=O)[C@H](Cc1ccccc1)NC(=O)[C@H](C)NC(=O)[C@H](CCCCN)NC(=O)CNC(=O)[C@H](Cc1ccccc1)NC(=O)[C@H](CCCCN)NC(=O)[C@]1(C)CCCC=CCCC[C@](C)(NC(=O)[C@H](Cc2ccccc2)NC(=O)[C@H](CCCCN)NC(=O)CNC(=O)[C@@H](NC(=O)CN)[C@@H](C)CC)C(=O)N[C@@H](Cc2c[nH]cn2)C(=O)N[C@@H](CO)C(=O)N[C@@H](C)C(=O)N1)C(C)C)[C@@H](C)CC)C(=O)N[C@@H](CC(N)=O)C(=O)N[C@@H](CO)C(N)=O  retention time (HPLC C18 column): 15.7 min
CC[C@H](C)[C@H](NC(=O)[C@H](Cc1ccc(O)cc1)NC(=O)[C@@H](N)CC(C)C)C(=O)N[C@@H](CCC(N)=O)C(=O)N[C@@H](Cc1c[nH]c2ccccc12)C(=O)N[C@@H](CC(C)C)C(=O)O  retention time (RP-HPLC C18): 18.9 min
CCCC[C@H](NC(=O)[C@@H](NC(=O)[C@H](CCC(=O)O)NC(=O)CNC(=O)[C@@H](NC(=O)[C@H](Cc1ccccc1)NC(=O)[C@H](C)NC(=O)[C@H](CCCCN)NC(=O)[C@]1(C)CCCC=CCCC[C@](C)(NC(=O)[C@H](CO)NC(=O)[C@H](Cc2c[nH]cn2)NC(=O)[C@H](CC(C)C)NC(=O)[C@H](Cc2ccccc2)NC(=O)[C@H](CCCCN)NC(=O)CNC(=O)[C@@H](NC(=O)CN)[C@@H](C)CC)C(=O)N[C@@H](CCCCN)C(=O)N[C@@H](CCCCN)C(=O)N[C@@H](Cc2ccccc2)C(=O)N1)C(C)C)[C@@H](C)CC)C(=O)N[C@@H](CC(N)=O)C(=O)N[C@@H](CO)C(N)=O  retention time (HPLC C18 column): 16.1 min
CC[C@H](C)[C@@H]1NC(=O)[C@](C)(N)CCCCCCC=CCCC[C@@](C)(C(=O)N[C@@H](C)C(=O)N[C@@H](CCCCN)C(=O)N[C@@H](CCCCN)C(=O)N[C@@H](Cc2ccccc2)C(=O)N[C@H](C(=O)N[C@@H](CCCCN)C(=O)N[C@@H](C)C(=O)N[C@@H](Cc2ccccc2)C(=O)N[C@@H](CCCCN)C(N)=O)C(C)C)NC(=O)[C@H](CCCCN)NC(=O)[C@H](CC(C)C)NC(=O)[C@H](Cc2ccccc2)NC(=O)[C@H](CCCCN)NC(=O)[C@H](CCCCN)NC1=O  retention time (UPLC; TFA water/acetonitrile gradient; longer = more hydrophobic): 2.57 min

For quick reference, copied from above:
CCCC[C@H](NC(=O)[C@@H](NC(=O)[C@H](CCC(=O)O)NC(=O)CNC(=O)[C@@H](NC(=O)[C@H](Cc1ccccc1)NC(=O)[C@H](C)NC(=O)[C@H](CCCCN)NC(=O)[C@]1(C)CCCC=CCCC[C@](C)(NC(=O)[C@H](CO)NC(=O)[C@H](Cc2c[nH]cn2)NC(=O)[C@H](CC(C)C)NC(=O)[C@H](Cc2ccccc2)NC(=O)[C@H](CCCCN)NC(=O)CNC(=O)[C@@H](NC(=O)CN)[C@@H](C)CC)C(=O)N[C@@H](CCCCN)C(=O)N[C@@H](CCCCN)C(=O)N[C@@H](Cc2ccccc2)C(=O)N1)C(C)C)[C@@H](C)CC)C(=O)N[C@@H](CC(N)=O)C(=O)N[C@@H](CO)C(N)=O  retention time (HPLC C18 column): 16.1 min
